Measurements collected from several papers.
Values joined by “and” are separate records of one study, mostly repeats; a detail may differ.
Target: Casein kinase I isoform epsilon (CSNK1E, Homo sapiens, UniProt P49674)
Chain of UniProt P49674 (whole entry, unmodified, looked up): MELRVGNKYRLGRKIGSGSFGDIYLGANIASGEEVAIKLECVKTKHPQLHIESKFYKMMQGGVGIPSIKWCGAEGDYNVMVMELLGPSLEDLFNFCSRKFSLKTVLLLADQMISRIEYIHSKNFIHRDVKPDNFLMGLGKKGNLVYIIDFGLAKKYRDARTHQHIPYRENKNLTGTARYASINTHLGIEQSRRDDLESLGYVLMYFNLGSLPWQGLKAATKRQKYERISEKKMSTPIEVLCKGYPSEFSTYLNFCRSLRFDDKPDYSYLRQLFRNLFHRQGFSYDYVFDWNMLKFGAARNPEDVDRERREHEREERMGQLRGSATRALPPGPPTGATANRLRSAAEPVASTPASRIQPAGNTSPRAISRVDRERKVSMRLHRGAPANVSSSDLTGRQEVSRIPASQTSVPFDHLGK

For `COCC12C(=O)NC3C4(C(OC)CC1O)C1CC5(O)C(OC)C(O)C(OC(C)=O)(C1C5OC(=O)c1ccccc1)C3(O)C(OC)C24` (stereo not shown), the remaining activity was 95% and 86% (kinase activity, inhibitor, ProQinase kinase profiling; 25 µM; relative to: control).
`NC(=O)C[C@H]1CCc2sc3ncnc(O[C@H]4CC[C@H](N5CCOCC5)CC4)c3c21` gave an inhibition of 8% (enzyme activity, inhibitor; 10 µM).
For `CC(C)=CC1OC(C)(C)C2C=C3C(=O)C(Cl)=CC(O)C3C3C(O)C4OC4C(=O)C132` (stereo not shown), the remaining binding was 100% (cell-free assay, competition with immobilised ligand; 10 µM).
`O=C(Cc1ccc(OCc2ccccc2)cc1)NC1(C(=O)O)CCN(C(=O)c2ccc(-c3cccc(Cl)c3)cc2)CC1`: “activity vs control” 74% (enzyme activity, inhibitor; 10 µM).
`Cc1cc(NC(=O)[C@H](O)c2cc(F)cc(F)c2)ccc1-c1cnc(N)c(C(=O)NC(C)C)c1` has a remaining binding of 30% (binding, competition with immobilised ligand; 10 µM).
`Nc1ncc2c(n1)-c1c([nH]c3ccc(C4=CCOCC4)cc13)CCC2` has a remaining binding of 90% (binding, competition with immobilised ligand; 1 µM).
With `C=CC(=O)N1CCCC(n2c(=O)c3ncccc3n(Cc3ccc(Oc4ccccc4)cc3)c2=O)C1` (stereo not shown) the remaining binding was 100% (cell-free assay, competition with immobilised ligand; 1 µM).
With `Cc1cccc(O[C@H]2CCC[C@@H](C(C)CNCc3ccncc3)C2)c1` (relative stereo) the inhibition was -7% (enzyme activity, inhibitor; 1 µM).
The remaining binding of `CCN1CCN(Cc2ccc(C(=O)Nc3ccc(C)c(NCc4cnc5[nH]ccc5c4OC)c3)cc2C(F)(F)F)CC1` is reported as 95% (binding, competition with immobilised ligand; 1 µM).
`CNC(=O)C1CCN(c2cc(C)c(F)cc2NC(=O)c2ccc(-c3cc(O)ccc3C)c(C)c2)CC1` has a remaining binding of 29% (binding, competition with immobilised ligand; 1 µM).
With `C=CC(=O)N1CCc2ccc(-n3c(=O)ccc4cnc5ccc(-c6cnn(C)c6)cc5c43)cc21` the remaining binding was 96% (KINOMEscan; 1 µM; relative to: DMSO control).
`COc1cc(Nc2nc(C)cc(-c3cnn4nc(OC)ccc34)n2)cc(C(F)(F)F)c1` gave a remaining activity of 80% (inhibitor; 1 µM; relative to: control).
The remaining binding of `Cc1cnc2nc1Nc1cccc(c1)COC/C=C/COCc1cc(ccc1OCCN1CCOCC1)N2` is reported as 85% (binding; 0.1 µM).

Repeated from above:
The remaining binding of `Cc1cnc2nc1Nc1cccc(c1)COC/C=C/COCc1cc(ccc1OCCN1CCOCC1)N2` is reported as 85% (binding; 0.1 µM).
The remaining binding of `CCN1CCN(Cc2ccc(C(=O)Nc3ccc(C)c(NCc4cnc5[nH]ccc5c4OC)c3)cc2C(F)(F)F)CC1` is reported as 95% (binding, competition with immobilised ligand; 1 µM).
